Results collected from several papers.
Each line is one published result; not all experiments were run side by side. Numbers after ± are the reported error.

For `[2H]C([2H])(c1ccccc1)C([2H])([2H])N1C(=O)CC(=O)N(C([2H])([2H])C([2H])([2H])c2ccccc2)C1=O`, the solubility was 62.5 µM.
The solubility of `CC(C)(O)Cn1cc(-c2ccc3nc(OC(F)F)ccc3c2)c2c(N)ncnc21` is reported as 98.2 µM (pH 2).
With `O=C1c2ccc(S(=O)(=O)O)cc2C(=O)c2cc(S(=O)(=O)O)ccc21` the solubility was 390000 ± 60000 µM (UV-vis spectroscopy; 1 M H2SO4 with 20 wt% sodium xylenesulfonate).
With `CCCCCCCCCCCCCCCCCCCCCC(=O)O[C@@H](C(=O)O[C@H]1C[C@@]2(O)[C@@H](OC(=O)c3ccccc3)[C@@H]3[C@]4(OC(C)=O)CO[C@@H]4C[C@H](O)[C@@]3(C)C(=O)[C@H](O)C(=C1C)C2(C)C)[C@@H](NC(=O)OC(C)(C)C)c1ccccc1` the solubility was 553000 ± 21000 µg/mL (Miglyol 808; 24 h, room temperature).
`CC(=O)C=C(C)[O][Pd][c]1ccccc1C(=O)N=P12CN3CN(CN(C3)C1)C2` has a solubility of 800 µM (DMSO:water 1:99).
`NS(=O)(=O)c1ccc(C(=O)N[C@@H]2O[C@H](CO)[C@@H](O)[C@H](O)[C@H]2O)cc1` has a solubility of 1% (water).
The solubility of `CC[C@H](C)[C@H](NC(=O)[C@H](CC(C)C)NC(=O)[C@H](Cc1c[nH]cn1)NC(=O)[C@H](Cc1c[nH]cn1)NC(=O)[C@H](CC(C)C)NC(=O)[C@H](Cc1c[nH]c2ccccc12)NC(=O)[C@H](Cc1ccccc1)NC(=O)[C@H](CCCNC(=N)N)NC(=O)[C@H](CCCNC(=N)N)NC(=O)[C@H](CCCNC(=N)N)NC(=O)[C@H](CC(C)C)NC(=O)[C@H](CC(=O)O)NC(=O)[C@H](CCC(N)=O)NC(=O)[C@@H](NC(=O)[C@H](CO)NC(=O)[C@H](CCCCN)NC(=O)[C@@H](Cc1c[nH]c2ccccc12)NC(=O)[C@H](CC(C)C)NC(=O)[C@H](CC(=O)O)NC(=O)[C@H](Cc1c[nH]cn1)NC(=O)[C@H](CC(C)C)NC(=O)[C@@H](N)CC(C)C)[C@@H](C)CC)C(=O)N[C@@H](C)C(=O)N[C@@H](CCC(=O)O)C(=O)N[C@H](C(=O)N[C@@H](Cc1c[nH]cn1)C(=O)N[C@H](C(=O)N[C@@H](C)C(=O)N[C@@H](CCC(=O)O)C(=O)N[C@@H](Cc1ccc(O)cc1)C(N)=O)[C@@H](C)O)[C@@H](C)CC` is reported as roughly 7000 µg/mL (saline citrate Tween 80; pH 5.0).
`Nc1ccn(CC2COP(=O)(OCCCCCCCCCCCCNC(=O)CCCCC3SCC4NC(=O)NC43)CO2)c(=O)n1` (mixture of isomers) has a solubility of 13200 ± 980 µg/mL.
`CN(C)CCNC(=O)c1cccc2c(NCCCCc3c(N)nc(N)nc3N)c3ccccc3nc12` has a solubility of no less than 500 µM (MOPS buffer, 300 mM NaCl, 1% DMSO; pH 7).
`CC(C)=CCC[C@](C)(O)[C@H]1CC[C@]2(C)[C@@H]1[C@H](O)C[C@@H]1[C@@]3(C)CC[C@H](O)C(C)(C)[C@@H]3CC[C@]12C` gave a solubility of 1540 ± 258 µg/mL (limonene; 72 h, 25 °C).
`C[N+]1(CC(=O)OC2CCCCCCCCCCC2)CCCCC1` gave a solubility of 171 µM (aqueous buffer; pH 7.4).
`CCCCCCCCCCCCCCCCCC(=O)O[C@@H](C(=O)O[C@H]1C[C@@]2(O)[C@@H](OC(=O)c3ccccc3)[C@@H]3[C@]4(OC(C)=O)CO[C@@H]4C[C@H](O)[C@@]3(C)C(=O)[C@H](O)C(=C1C)C2(C)C)[C@@H](NC(=O)OC(C)(C)C)c1ccccc1` gave a solubility of 57.5 ± 2.6 µg/mL (BALB/c mouse plasma; 24 h, room temperature).
With `NS(=O)(=O)NCC(F)(F)c1ccccc1F` the solubility was 11100 µg/mL (shake-flask; water; pH 7.4).
The solubility of `COc1cc(Cc2cnc(N)nc2N)cc(OC)c1OC.O=c1[nH]cc(F)c(=O)[nH]1` is reported as 12900 µg/mL (shake flask; dilute hydrochloric acid; pH 1.2, room temperature).
`CC(=Nc1ccccc1)c1c(C)cc(=O)n(O)c1O` has a solubility of no less than 200 µM (pH 1.6).
The solubility of `CCCC1OC2CC3C4CCC5=CC(=O)C=CC5(C)C4C(O)CC3(C)C2(C(=O)COC(=O)C(N)Cc2ccccc2)O1` (centres unmarked) is reported as 0.0035 g/100 g (HPLC; water; 72 h, 25 °C).
For `Cc1ccc(N2C(=O)c3ccccc3NC23C(=O)N(C)c2ccc(Br)cc23)cc1` (centres unmarked), the solubility was 0.2 to 1.4 µM (dried DMSO stock; PBS; pH 7.4).
`C[C@@H]1O[C@H](NC(=O)c2ccc(S(N)(=O)=O)cc2)[C@H](O)[C@H](O)[C@H]1O` has a solubility of 1% (water).
The solubility of `CC[C@H](C)[C@H](NC(=O)[C@H](CC(N)=O)NC(=O)[C@H](CCC(=O)O)NC(=O)[C@H](CCC(=O)O)NC(=O)[C@H](CCC(=O)O)NC(C)=O)C(=O)N[C@@H](Cc1ccc(OP(=O)(O)O)cc1)C(=O)N[C@@H](CO)C(=O)N[C@H](C(=O)N1CCC[C@H]1C(=O)N[C@@H](Cc1c[nH]cn1)C(=O)N[C@@H](CC(=O)O)C(=O)N[C@@H](CO)C(=O)N[C@H](C(N)=O)[C@@H](C)O)C(C)C` is reported as 5000 µg/mL (Tris buffer; pH 7.4).
`COc1cc(-c2nc3ccc(C(=O)NCCCN4CCN(c5cccc(C)c5C)CC4)cc3n2C2CCC2)cc(OC)c1OC` gave a solubility of 10.4 µM (dynamic solubility).
`O=C(O)c1ccc(/C=C2\SC(=S)N(Cc3cccc(C(F)(F)F)c3)C2=O)cc1` has a solubility of 5000 µg/mL (DMSO:Solutol HS 15:saline; pH 9.0, 10%:10%:80%).
For `O=S(=O)(O)c1cc(O)c(O)c(S(=O)(=O)O)c1`, the solubility was 30000 ± 50000 µM (UV-vis spectroscopy; 1 M H2SO4 with 20 wt% sodium xylenesulfonate).
The solubility of `C=C(c1ncc(C(=O)O)cn1)c1cc2c(cc1C)C(C)(C)CCC2(C)C` is reported as 49 ± 1 µM (deionized water; 24 h, 20 °C).
